{"data": "Assay results of several laboratories", "note": "Each numbered part is a random draw from the data of one study; scales do not carry over between parts. Values joined by “and” are separate records of one study, mostly repeats; a detail may differ.", "sequence of UniProt Q14790 (whole entry, looked up)": "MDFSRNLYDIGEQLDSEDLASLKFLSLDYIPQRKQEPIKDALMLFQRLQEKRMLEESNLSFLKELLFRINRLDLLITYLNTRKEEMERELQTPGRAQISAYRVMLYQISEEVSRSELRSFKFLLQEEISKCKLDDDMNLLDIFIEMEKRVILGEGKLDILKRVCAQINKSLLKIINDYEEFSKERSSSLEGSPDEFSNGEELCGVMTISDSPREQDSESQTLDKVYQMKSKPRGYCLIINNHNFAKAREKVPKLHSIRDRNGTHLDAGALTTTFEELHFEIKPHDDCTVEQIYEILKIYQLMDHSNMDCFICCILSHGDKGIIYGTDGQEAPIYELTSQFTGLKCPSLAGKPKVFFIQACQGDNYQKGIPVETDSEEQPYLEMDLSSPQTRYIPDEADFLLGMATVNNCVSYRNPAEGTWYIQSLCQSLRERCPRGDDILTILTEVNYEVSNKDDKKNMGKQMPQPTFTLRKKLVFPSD", "sequence of UniProt P9WI81 (whole entry, looked up)": "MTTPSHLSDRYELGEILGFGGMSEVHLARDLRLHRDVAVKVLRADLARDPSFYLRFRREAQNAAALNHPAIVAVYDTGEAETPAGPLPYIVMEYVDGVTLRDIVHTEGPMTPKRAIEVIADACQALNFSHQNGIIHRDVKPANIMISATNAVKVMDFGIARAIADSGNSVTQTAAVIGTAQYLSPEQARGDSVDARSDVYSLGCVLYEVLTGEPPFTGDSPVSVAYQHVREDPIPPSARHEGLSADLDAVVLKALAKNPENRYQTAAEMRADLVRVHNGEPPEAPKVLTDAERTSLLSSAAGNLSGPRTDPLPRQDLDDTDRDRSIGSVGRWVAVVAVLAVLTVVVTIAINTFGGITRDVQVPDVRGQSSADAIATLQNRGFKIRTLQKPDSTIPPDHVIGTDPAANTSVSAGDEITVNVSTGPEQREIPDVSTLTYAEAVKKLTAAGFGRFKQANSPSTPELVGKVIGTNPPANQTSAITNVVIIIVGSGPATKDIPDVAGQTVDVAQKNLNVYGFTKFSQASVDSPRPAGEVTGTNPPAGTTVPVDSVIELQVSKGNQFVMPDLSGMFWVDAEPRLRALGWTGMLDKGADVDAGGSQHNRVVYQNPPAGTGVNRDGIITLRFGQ"}
{"data": "Block 1", "Compound": "Cn1cc(-c2cccc(CN3CCC4(CC3)COc3c4ccc4c3CN([C@H]3CCC(=O)NC3=O)C4=O)c2)cn1", "host": "Crbn I391V mouse, MC-38 tumour", "dose": "30 mg/kg"}
{"setting": "day 19, with: anti-LAG3 antibody 10 mg/kg weekly", "body weight change": "0.4% and 8.2% and -4.2% and -1.6% and 10.1% and 1.1% and -3.5%"}
{"setting": "oral, daily, day 15, anti-PD1 combination study", "body weight change": "-3% and 5.2% and 3.3% and 4.4% and 1.7%"}
{"setting": "day 25, with: anti-LAG3 antibody 10 mg/kg weekly", "body weight change": "-0.4% and -2.8% and 1.2% and 3.3% and 7.4%"}
{"setting": "oral, daily, day 36, anti-PD1 combination study", "body weight change": "11.4% and 23.1% and -1.7%"}
{"setting": "day 50, with: anti-LAG3 antibody 10 mg/kg weekly", "body weight change": "9.9%"}
{"setting": "oral, daily, day 39, anti-PD1 combination study", "body weight change": "12.2%"}
{"setting": "day 11, with: anti-LAG3 antibody 10 mg/kg weekly", "body weight change": "-2.1% and 0.7% and -2.4% and 0%"}
{"data": "Block 2", "Compound": "CC[C@H](C)[C@H](NC(C)=O)C(=O)N[C@@H](CCC(=O)O)C(=O)N[C@H](C(=O)N[C@H](C=O)CC(=O)O)[C@@H](C)O", "observed": "enzyme activity", "mode": "inhibitor", "CASP6": "Caspase-6 (CASP6, Homo sapiens, UniProt P55212)", "sequence of UniProt P55212 (whole entry, looked up)": "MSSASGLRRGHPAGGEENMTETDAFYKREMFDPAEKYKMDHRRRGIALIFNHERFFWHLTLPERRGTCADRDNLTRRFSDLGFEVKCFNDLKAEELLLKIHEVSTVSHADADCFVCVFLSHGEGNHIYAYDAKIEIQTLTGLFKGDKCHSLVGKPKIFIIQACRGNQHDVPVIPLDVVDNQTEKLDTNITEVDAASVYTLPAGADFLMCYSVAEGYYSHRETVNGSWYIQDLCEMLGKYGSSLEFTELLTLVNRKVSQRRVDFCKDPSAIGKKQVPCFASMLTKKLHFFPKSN"}
{"target": "CASP6", "setting": "5 µM", "inhibition [%]": 93}
{"target": "CASP6", "setting": "0.5 µM", "inhibition [%]": 34}
{"target": "Caspase-8 (CASP8, Homo sapiens, UniProt Q14790)", "setting": "10 nM", "inhibition [%]": 38}
{"data": "Further values, each from its own experiment"}
{"Structure (SMILES)": "COc1cc(-c2nc3ccc(C(=O)NCCCN(C)C)cc3n2C2CCC2)cc(OC)c1OC", "target or system": "pknB (Mycobacterium tuberculosis, UniProt P9WI81)", "assay": "binding, competition with immobilised ligand", "setting": "1 µM", "measurement": "remaining binding", "value": "100%"}
{"Structure (SMILES)": "N=C(N)NCCCCCCN1CCC23c4c5ccc(O)c4OC2c2nc4ccccc4cc2CC3(O)C1C5 (centres unmarked)", "assay": "modified Racine scale", "system": "C57BL/6J mice, male", "setting": "intracerebroventricular, 100 nmol, 25 min", "scale": "direction not given", "measurement": "seizure score", "value": 0}
{"Structure (SMILES)": "O=[N+]([O-])c1ccc(C2=NOC3(NC(c4ccccc4)=NO3)N2c2ccccc2)cc1 (centres unmarked)", "target or system": "Plasmodium falciparum", "assay": "parasite growth", "system": "DD2", "setting": "72 h, drug-resistant strain, blood stage", "measurement": "IC50", "value": "12.7 µM"}
{"Structure (SMILES)": "C#CCN1C(=O)C(O)(C(=O)O)Oc2cc(F)ccc21 (centres unmarked)", "target or system": "Arabidopsis thaliana", "system": "Col-0", "setting": "100 µg/mL, seed germination", "measurement": "root length", "value": "0.01 cm"}
{"note": "A few entries again (block 1):"}
{"setting": "oral, daily, day 36, anti-PD1 combination study", "body weight change": "11.4% and 23.1% and -1.7%"}
